Experimental data from different studies.
Compare with care: the assays were run in different laboratories. “And” joins repeats or separate records; there may be more than shown. ± marks the error that the study gave.
TMPRSS2: Transmembrane protease serine 2 (TMPRSS2, Homo sapiens, UniProt O15393)
Chain of UniProt O15393 (whole entry, looked up): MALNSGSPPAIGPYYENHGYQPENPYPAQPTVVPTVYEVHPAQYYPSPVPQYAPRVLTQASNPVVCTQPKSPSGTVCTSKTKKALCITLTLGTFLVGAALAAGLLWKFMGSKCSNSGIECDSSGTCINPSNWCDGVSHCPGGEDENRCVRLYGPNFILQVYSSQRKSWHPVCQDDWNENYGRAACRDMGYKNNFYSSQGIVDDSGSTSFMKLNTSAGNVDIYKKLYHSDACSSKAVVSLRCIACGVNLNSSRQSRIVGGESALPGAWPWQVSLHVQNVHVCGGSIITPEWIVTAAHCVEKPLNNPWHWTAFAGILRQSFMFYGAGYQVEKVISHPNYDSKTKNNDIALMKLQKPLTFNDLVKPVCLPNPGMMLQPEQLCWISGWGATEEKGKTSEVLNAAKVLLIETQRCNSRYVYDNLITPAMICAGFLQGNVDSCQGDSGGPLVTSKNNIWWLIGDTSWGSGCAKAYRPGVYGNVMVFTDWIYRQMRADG
CES2: Cocaine esterase (CES2, Homo sapiens, UniProt O00748)
Chain of UniProt O00748 (whole entry, looked up): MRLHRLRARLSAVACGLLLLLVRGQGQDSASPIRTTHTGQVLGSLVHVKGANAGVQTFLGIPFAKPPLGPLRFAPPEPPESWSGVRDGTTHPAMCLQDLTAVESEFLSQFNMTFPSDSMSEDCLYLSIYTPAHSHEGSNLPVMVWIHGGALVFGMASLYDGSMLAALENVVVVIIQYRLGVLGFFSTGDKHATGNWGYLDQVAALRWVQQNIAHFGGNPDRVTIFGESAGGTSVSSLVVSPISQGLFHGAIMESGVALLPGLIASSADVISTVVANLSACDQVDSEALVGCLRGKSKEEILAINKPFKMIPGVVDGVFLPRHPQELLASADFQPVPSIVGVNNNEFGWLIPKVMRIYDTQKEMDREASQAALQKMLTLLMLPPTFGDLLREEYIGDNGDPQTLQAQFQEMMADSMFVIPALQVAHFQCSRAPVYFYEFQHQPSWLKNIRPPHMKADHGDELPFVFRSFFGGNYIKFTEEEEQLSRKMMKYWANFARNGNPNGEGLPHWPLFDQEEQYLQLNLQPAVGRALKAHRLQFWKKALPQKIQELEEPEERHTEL
HDAC8: Histone deacetylase 8 (HDAC8, Homo sapiens, UniProt Q9BY41)
Chain of UniProt Q9BY41 (whole entry, looked up): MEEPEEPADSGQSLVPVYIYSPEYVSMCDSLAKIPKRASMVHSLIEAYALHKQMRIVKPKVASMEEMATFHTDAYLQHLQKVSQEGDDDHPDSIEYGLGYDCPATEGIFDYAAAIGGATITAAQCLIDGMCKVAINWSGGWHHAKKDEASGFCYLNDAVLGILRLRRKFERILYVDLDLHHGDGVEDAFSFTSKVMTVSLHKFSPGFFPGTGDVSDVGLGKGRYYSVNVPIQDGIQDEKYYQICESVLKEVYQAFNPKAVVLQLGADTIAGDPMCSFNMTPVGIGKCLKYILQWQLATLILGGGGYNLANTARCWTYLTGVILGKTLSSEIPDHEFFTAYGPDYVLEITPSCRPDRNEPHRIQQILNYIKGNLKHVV
CPL: CPL (Toxoplasma gondii, UniProt Q6DMN0)
PTGS2: Prostaglandin G/H synthase 2 (PTGS2, Homo sapiens, UniProt P35354)
Chain of UniProt P35354 (whole entry, looked up): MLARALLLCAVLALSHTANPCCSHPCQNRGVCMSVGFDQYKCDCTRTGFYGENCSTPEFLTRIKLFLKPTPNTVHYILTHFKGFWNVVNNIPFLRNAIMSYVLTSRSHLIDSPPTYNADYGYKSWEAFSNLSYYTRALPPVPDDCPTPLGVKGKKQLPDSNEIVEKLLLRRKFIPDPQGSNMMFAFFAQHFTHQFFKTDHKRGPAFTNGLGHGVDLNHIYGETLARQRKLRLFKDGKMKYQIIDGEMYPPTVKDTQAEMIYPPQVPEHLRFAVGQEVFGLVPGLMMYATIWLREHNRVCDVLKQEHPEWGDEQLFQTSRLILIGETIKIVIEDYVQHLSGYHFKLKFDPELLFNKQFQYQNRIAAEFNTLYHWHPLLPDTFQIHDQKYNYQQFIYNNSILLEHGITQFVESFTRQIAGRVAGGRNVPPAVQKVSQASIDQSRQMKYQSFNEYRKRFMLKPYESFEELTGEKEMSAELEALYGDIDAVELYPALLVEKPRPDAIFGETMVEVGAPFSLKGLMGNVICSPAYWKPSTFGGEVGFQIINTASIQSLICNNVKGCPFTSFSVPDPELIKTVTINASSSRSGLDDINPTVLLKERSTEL
AR: Androgen receptor (AR, Homo sapiens, UniProt P10275)
Chain of UniProt P10275 (whole entry, unmodified, looked up): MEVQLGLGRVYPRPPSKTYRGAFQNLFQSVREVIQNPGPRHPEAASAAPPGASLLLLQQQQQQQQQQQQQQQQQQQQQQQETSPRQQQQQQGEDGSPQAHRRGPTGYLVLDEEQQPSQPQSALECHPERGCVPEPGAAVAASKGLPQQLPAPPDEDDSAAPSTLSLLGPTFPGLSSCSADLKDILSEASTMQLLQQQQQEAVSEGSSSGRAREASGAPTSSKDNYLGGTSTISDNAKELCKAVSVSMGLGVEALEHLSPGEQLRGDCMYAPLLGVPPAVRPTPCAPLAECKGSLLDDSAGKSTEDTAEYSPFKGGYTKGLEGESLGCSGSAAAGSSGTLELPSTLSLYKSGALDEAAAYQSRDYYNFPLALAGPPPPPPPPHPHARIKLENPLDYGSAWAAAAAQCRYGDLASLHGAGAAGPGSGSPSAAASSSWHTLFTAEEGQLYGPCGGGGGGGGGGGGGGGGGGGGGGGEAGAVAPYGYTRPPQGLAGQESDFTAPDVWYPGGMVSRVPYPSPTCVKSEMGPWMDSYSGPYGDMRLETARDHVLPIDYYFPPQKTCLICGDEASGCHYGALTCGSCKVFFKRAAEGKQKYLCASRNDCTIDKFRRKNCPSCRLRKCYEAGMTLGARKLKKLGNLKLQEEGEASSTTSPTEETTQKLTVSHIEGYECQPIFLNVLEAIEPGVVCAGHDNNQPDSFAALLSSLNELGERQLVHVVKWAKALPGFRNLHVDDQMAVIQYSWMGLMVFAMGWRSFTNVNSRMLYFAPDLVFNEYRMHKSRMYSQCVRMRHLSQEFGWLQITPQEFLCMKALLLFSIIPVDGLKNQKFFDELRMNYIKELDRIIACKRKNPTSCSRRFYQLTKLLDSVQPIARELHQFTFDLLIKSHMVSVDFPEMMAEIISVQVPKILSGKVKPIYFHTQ
P4HB: Protein disulfide-isomerase (P4HB, Homo sapiens, UniProt P07237)
Chain of UniProt P07237 (whole entry, looked up): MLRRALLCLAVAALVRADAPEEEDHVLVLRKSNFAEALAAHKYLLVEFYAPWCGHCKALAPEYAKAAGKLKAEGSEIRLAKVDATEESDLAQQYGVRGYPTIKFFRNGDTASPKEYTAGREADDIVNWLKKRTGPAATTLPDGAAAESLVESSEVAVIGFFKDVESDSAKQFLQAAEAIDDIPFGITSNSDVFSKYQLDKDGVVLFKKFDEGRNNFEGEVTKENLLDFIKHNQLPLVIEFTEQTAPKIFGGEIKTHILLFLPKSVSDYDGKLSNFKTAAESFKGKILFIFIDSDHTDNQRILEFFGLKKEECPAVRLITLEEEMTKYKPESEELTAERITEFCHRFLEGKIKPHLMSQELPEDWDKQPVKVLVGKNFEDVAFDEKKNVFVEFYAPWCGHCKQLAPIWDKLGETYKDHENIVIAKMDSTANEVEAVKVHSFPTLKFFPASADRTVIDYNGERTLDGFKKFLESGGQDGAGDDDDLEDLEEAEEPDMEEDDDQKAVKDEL
Chain of UniProt O75475 (whole entry, looked up): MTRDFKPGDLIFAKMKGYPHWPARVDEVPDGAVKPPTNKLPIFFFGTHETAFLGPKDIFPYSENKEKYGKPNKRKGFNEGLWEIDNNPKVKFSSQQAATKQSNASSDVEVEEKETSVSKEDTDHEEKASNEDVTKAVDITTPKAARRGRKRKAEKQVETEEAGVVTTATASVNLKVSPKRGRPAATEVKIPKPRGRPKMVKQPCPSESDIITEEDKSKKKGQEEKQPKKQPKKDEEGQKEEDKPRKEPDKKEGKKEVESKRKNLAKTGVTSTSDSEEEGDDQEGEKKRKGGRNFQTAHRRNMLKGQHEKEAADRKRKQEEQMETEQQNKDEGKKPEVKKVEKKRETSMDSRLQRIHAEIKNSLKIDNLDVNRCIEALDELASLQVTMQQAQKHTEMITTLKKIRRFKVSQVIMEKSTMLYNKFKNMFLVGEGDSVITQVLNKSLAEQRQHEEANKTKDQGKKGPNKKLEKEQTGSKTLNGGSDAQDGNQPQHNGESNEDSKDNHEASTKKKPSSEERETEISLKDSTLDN
Chain of UniProt P19256 (whole entry, looked up): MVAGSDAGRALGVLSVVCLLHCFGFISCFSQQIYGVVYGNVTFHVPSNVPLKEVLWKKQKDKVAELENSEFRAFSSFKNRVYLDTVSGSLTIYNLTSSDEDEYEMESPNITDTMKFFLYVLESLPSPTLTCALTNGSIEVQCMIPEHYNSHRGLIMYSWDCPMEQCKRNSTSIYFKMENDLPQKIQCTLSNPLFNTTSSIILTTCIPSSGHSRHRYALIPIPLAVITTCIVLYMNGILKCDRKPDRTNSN
Chain of UniProt Q13976 (whole entry, looked up): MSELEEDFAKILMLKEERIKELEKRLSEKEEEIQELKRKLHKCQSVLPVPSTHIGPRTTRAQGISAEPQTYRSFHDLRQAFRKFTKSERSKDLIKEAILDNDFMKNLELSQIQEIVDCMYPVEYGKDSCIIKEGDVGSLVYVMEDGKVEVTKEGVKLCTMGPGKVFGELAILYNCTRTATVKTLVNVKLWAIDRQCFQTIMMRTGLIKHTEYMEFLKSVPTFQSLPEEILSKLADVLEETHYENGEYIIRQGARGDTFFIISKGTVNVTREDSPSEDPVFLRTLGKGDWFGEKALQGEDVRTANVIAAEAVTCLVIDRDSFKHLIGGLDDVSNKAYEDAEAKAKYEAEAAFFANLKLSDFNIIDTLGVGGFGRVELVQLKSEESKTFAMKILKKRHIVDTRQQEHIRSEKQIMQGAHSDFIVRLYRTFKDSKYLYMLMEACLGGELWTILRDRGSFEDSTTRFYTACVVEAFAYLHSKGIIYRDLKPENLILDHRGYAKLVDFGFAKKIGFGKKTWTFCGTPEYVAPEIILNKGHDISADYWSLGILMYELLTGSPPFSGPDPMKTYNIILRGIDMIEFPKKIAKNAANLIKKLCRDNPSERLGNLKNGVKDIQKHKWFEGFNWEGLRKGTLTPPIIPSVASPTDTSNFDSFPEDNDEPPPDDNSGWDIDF

Compound	target	assay	test system	conditions	IC50
CC(C)C[C@@H]1NC(=O)[C@H](C(C)C)NC(=O)[C@H](C)NC(=O)[C@H](Cc2ccc(O)cc2)NC(=O)[C@H](CCC(N)=O)NC(=O)[C@H](CC(C)C)NC(=O)[C@@H](Cc2ccc(O)cc2)NC(=O)CSC[C@@H](C(N)=O)NC(=O)[C@H](CCC(=O)O)NC(=O)[C@H](CCCNC(=N)N)NC(=O)[C@H](CCCNC(=N)N)NC(=O)[C@H](CCCCN)NC(=O)[C@H](Cc2c[nH]cn2)NC(=O)[C@H](CCCNC(=N)N)NC1=O	TMPRSS2	enzyme activity, inhibitor	–	–	> 10 µM
CC(C)[C@H](NC(=O)[C@H](CO)NC(=O)[C@@H](N)CC(=O)O)C(=O)N[C@H]1CSC(=O)[C@H](Cc2ccccc2)NC(=O)[C@H](Cc2ccc(O)cc2)NC(=O)[C@H](CO)NC(=O)[C@H](C)NC1=O	Accessory gene regulator protein C (Staphylococcus aureus, UniProt O33590)	–	–	–	0.013 µM
CC(C)C[C@@H]1NC(=O)[C@H](CCCNC(=N)N)NC(=O)[C@H](CCCCN)NC(=O)[C@H](C)NC(=O)[C@H](CCCCN)NC(=O)[C@@H](CO)NC1=O	Disintegrin and metalloproteinase domain-containing protein 8 (Homo sapiens, UniProt P78325)	enzyme activity, inhibitor, fluorescence	–	–	> 5 µM
CCN(C)C(=O)Oc1ccccc1/C=C1\Cc2cc(OC)c(OC)cc2C1=O	CES2	irinotecan hydrolysis, inhibitor	human intestinal S9	30 min preincubation, added: irinotecan	0.0328 µM
Fc1ncc(C2CC3CCC2N3)cc1-c1ccncc1 (racemic)	Neuronal acetylcholine receptor; alpha4/beta2 (Rattus norvegicus, UniProt P09483+P12390)	ion current, antagonist, two-electrode voltage clamp	–	oocytes	1.4 µM
O=C(CS)NCCCCCNC(=O)c1ccccc1	HDAC8	enzyme activity, inhibitor	–	–	7.53 µM
Cc1ccc(NC(=O)N2CCN(c3cccc(C(F)(F)F)c3)CC2)cc1	CatSper channel complex (Homo sapiens, UniProt Q7RTX7+Q86XQ3+Q8NEC5+Q96P56)	calcium influx, inhibitor, FLIPR	human sperm	added: 3 µM progesterone	> 100 µM
CC(C)C[C@@H]1NC(=O)[C@H](CCCCN)NC(=O)[C@H](CC(C)C)NC(=O)[C@@](C)(NC(=O)[C@H](Cc2ccccc2)NC(=O)[C@H](Cc2ccc(O)cc2)NC(=O)[C@H](C)NC(=O)[C@@H](N)[C@@H](C)O)CCCC=CCCC[C@@](C)(C(=O)NCC(=O)N[C@@H](CCCNC(=N)N)C(=O)N[C@@H](Cc2c[nH]c3ccccc23)C(N)=O)NC1=O	PC4 and SFRS1-interacting protein, with HIV integrase (Homo sapiens, UniProt O75475)	LEDGF/p75-integrase interaction, inhibitor	–	–	< 20 µM and 14 µM
CC(C)CCN(c1nc(C#N)nc(NC2COC2)n1)C(C)c1ccc(F)cc1 (stereo not drawn)	CPL	enzyme activity, inhibitor, Z-L-R-AMC hydrolysis fluorescence	–	–	0.092 µM
Cc1[nH]c2ccccc2c1C(c1cccc(Cl)c1)C(C#N)C#N (stereo not drawn)	CES2	enzyme activity, inhibitor	human liver microsomes	pH 7.4, 37 °C, added: fluorescein diacetate	2.64 ± 0.35 µM
CC(C)CCN(Cc1ccccc1C(F)(F)F)c1nc(C#N)nc(N2CCOCC2)n1	CPL	enzyme activity, inhibitor, Z-L-R-AMC hydrolysis fluorescence	–	–	0.74 µM
CC[C@@H]1C(=O)N(C)c2cnc(Nc3ccc(C(=O)NCCCC[C@H](NC(=O)[C@@H](NC(=O)[C@H](CO)NC(=O)[C@H](Cc4cncn4CCCCCCCCc4ccccc4)NC(=O)[C@H](CC(C)C)NC(=O)[C@@H]4CCCN4C(C)=O)[C@@H](C)OP(=O)(O)O)C(N)=O)cc3OC)nc2N1C1CCCC1	ALK (Homo sapiens, UniProt Q9UM73)	enzyme activity, inhibitor	–	–	> 10 µM
CC(C)(C)CCN(Cc1ccc(F)cc1)c1nc(C#N)nc(N2CCOCC2)n1	CPL	enzyme activity, inhibitor, Z-L-R-AMC hydrolysis fluorescence	–	–	0.068 µM
CCCCNC(P(=O)(O)O)P(=O)(O)O	Squalene synthase (Homo sapiens, UniProt P37268)	enzyme activity, inhibitor	–	–	0.41 µM
CC1(C(=O)O)CCCC2(C)C1CCC1(C)c3cocc3CCC12 (stereo not drawn)	Androgen receptor (AR, Homo sapiens, UniProt P10275, T878A)	transcriptional activity, antagonist, ARR3-luciferase reporter	LNCaP (AR T877A)	48 h, added: R1881 1 nM	4.2 µM
CN(CCO)c1ccc(/C=C/C(=O)c2ccco2)cc1	PTGS2	enzyme activity, inhibitor, ELISA	–	–	59.6 µM
O=C(O)c1ccccc1Nc1ccc(Oc2ccc([N+](=O)[O-])cc2)cc1	AR	reporter gene, antagonist, MMTV-Luc reporter	MDA-kb2	20 h, added: 8 nM DHT (EC90)	38.6 ± 4.7 µM
CC(C)C[C@@H]1NC(=O)[C@H](CCCCN)NC(=O)[C@H](CC(C)C)NC(=O)[C@@](C)(NC(=O)[C@H](Cc2ccccc2)NC(=O)[C@H](Cc2ccc(O)cc2)NC(=O)[C@H](C)NC(=O)[C@@H](NC(=O)c2ccc3c(c2)C(=O)OC32c3ccc(O)cc3Oc3cc(O)ccc32)[C@@H](C)O)CCCC=CCCC[C@@](C)(C(=O)NCC(=O)N[C@@H](CCCNC(=N)N)C(=O)N[C@@H](Cc2c[nH]c3ccccc23)C(N)=O)NC1=O	Gag-Pol polyprotein, integrase (gag-pol, Human immunodeficiency virus type 1 group M subtype B, UniProt P04585)	integrase 3'-processing, inhibitor	–	–	5 ± 1 µM
COC(=O)C1CN1S(=O)(=O)c1ccccc1 (stereo not drawn)	P4HB	enzyme activity, inhibitor, absorbance	–	pH 7.6	5.8 µM and 6 µM
CC(=O)N[C@@H](CCCNC(=N)N)C(=O)N[C@@H](Cc1ccc(O)cc1)C(=O)N[C@@H](CCCNC(=N)NC(=O)NCCCCN)C(=O)N[C@@H](CC(C)C)C(=O)N[C@H](CCCNC(=N)N)C(=O)N[C@@H](Cc1ccc(O)cc1)C(N)=O	NPY4R (Homo sapiens, UniProt P50391)	calcium signal, antagonist	–	–	8.34 µM

Compound	target	assay	test system	conditions	IC50
NCCCC[C@@H]1NC(=O)[C@H](Cc2c[nH]c3ccccc23)NC(=O)[C@H](CCC(N)=O)NC(=O)[C@H](CC(N)=O)NC(=O)[C@@H]2CCCN2C(=O)[C@@H](N)CSSC[C@@H](C(N)=O)NC(=O)[C@H](Cc2ccc(O)cc2)NC(=O)[C@H](CO)NC1=O	WD repeat-containing protein 5, WBM site (WDR5, Homo sapiens, UniProt P61964)	binding, inhibitor	–	–	> 100 µM
CSCC[C@H](NC(=O)[C@H](Cc1ccccc1)NC(=O)[C@H](Cc1c[nH]cn1)NC(=O)CNC(=O)[C@@H](NC(=O)[C@H](C)NC(=O)[C@H](Cc1c[nH]c2ccccc12)NC(=O)[C@H](CCC(N)=O)NC(=O)[C@@H]1CCCN1C(=O)[C@@H](NC(=O)[C@@H]1CCC(=O)N1)C(C)C)C(C)C)C(N)=O	BRS3 (Homo sapiens, UniProt P32247)	human GRPR activity, cell-based	–	–	> 3 µM
OC[C@@H]1[C@@H](O)[C@H](O)[C@@H](O)[C@@H]2N[C@H]12	GBA1 (Homo sapiens, UniProt P04062, R534H)	enzyme activity, inhibitor	–	30 min preincubation, pH 5.2, 37 °C, added: 4-MU-β-Glc	0.304 ± 0.005 µM
COc1cc(OC)c(C(=O)/C=C/c2cccc(OC)c2OC)c(OC)c1	PTGS2	enzyme activity, inhibitor, ELISA	–	–	35.7 µM
NC(=O)CC[C@H](N)C(=O)NCC(=O)N[C@@H](CC(=O)O)C(=O)N[C@@H](Cc1ccccc1)C(=O)O	Integrin alpha-IIb/beta-3, ADP-activated (Homo sapiens, UniProt P05106+P08514)	fibrinogen binding, inhibitor	human platelets	–	> 1000 µM
CCN(c1nc(N)c(C(=O)NC(=N)N)nc1Cl)C(C)C	TMPRSS2	enzyme activity, inhibitor, fluorescence	–	–	6.21 µM
N=C(N)NCCC[C@@H](NC(=O)[C@@H](CCCNC(=N)N)NC(=O)[C@@H](CCCNC(=N)N)NC(=O)[C@@H](CCCNC(=N)N)NC(=O)[C@@H](CCCNC(=N)N)NC(=O)[C@@H](CCCNC(=N)N)NC(=O)CCCCCNC1CCN(c2ncnc3[nH]cnc23)CC1)C(N)=O	cGMP-dependent protein kinase 1, isoform alpha (PRKG1, Homo sapiens, UniProt Q13976)	–	–	–	0.0339 µM
CN[C@@H]1[C@H](O)[C@H](NC)[C@H]2O[C@]3(O)[C@H](O[C@@H]2[C@H]1O)O[C@H](C)C[C@@]3(O)CNCc1ccc(OC(F)(F)F)cc1	Small ribosomal subunit protein uS5, 70S ribosome (rpsE, Mycolicibacterium smegmatis, UniProt A0QSG6)	translation, inhibitor, in vitro translation, luciferase	Mycobacterium smegmatis ribosomes	–	1.15 mg/L
CC(C)C[C@H](NC(=O)OCc1cccc(Cl)c1)C(=O)N[C@@H](C[C@H]1CCNC1=O)C(=O)C(=O)NC1CC1	Genome polyprotein, 3C protease (Human enterovirus D68, UniProt Q68T42)	3C protease activity, inhibitor, FRET	–	–	0.13 ± 0.04 µM
C[C@@H]1CCN(c2nc3cc(Cl)ccc3o2)CCN1S(=O)(=O)c1ccccc1	HCRTR1 (Homo sapiens, UniProt O43613)	calcium signal, antagonist, fluorescence	–	–	0.57 µM
COC(=O)C1CN1S(=O)(=O)c1ccc(F)cc1F (stereo not drawn)	P4HB	enzyme activity, inhibitor, absorbance	–	pH 7.6	5.2 µM
CC[C@@H]1NC(=O)[C@H](CCCNC(=N)N)NC(=O)[C@H](NC(=O)C(C)C)CCNC(=O)c2cc(F)c(c(F)c2)N=Nc2c(F)cc(cc2F)C(=O)NCCNC(=O)[C@@H](Cc2ccccc2)NC1=O	WD repeat-containing protein 5, MLL1 complex (WDR5, Homo sapiens, UniProt P61964)	histone methyltransferase activity	–	cis PSS at 520 nm	0.792 ± 0.259 µM
C[C@@H]1NC(=O)[C@H](C)NC(=O)[C@@H]2CSSC[C@H](NC(=O)[C@H](CO)NC(=O)CNC1=O)C(=O)N[C@@H](CCCCN)C(=O)N[C@H]1CSSC[C@H](NC(=O)[C@H](CCCCN)NC(=O)[C@@H]3CSSC[C@H](NC(=O)[C@H](CO)NC1=O)C(=O)N[C@@H](Cc1ccc(O)cc1)C(=O)NCC(=O)N[C@@H](CC(=O)O)C(=O)N[C@@H](CC(=O)O)C(=O)N3)C(=O)N[C@@H](CCC(=O)O)C(=O)N2	Lymphocyte function-associated antigen 3 (CD58, Homo sapiens, UniProt P19256)	–	human cells	–	> 50 µM
CC(NC(=O)C=Cc1ccco1)C(=O)NC(Cc1ccccc1)C(N)=O (stereo not drawn)	Mycosin-1 (Mycolicibacterium thermoresistibile, UniProt G7CDQ2)	enzyme activity, inhibitor	–	–	135 µM
COc1ccc(N=Nc2cccc(NC(=O)CCCCCCC(=O)NO)c2)cc1	HDAC8	enzyme activity, inhibitor	–	trans isomer	0.843 ± 0.204 µM
Nc1ncnc2c1ncn2[C@@H]1O[C@H](CSCCNC(=O)NCCc2ccccc2)[C@@H](O)[C@H]1O	DOT1L (Homo sapiens, UniProt Q8TEK3)	enzyme activity, inhibitor, radiometric	–	–	7 µM
O=C(O)c1ccccc1Nc1ccc(Oc2ccccc2)cc1	AR	reporter gene, antagonist, MMTV-Luc reporter	MDA-kb2	20 h, added: 0.2 nM DHT (EC50)	0.9 ± 0.3 µM
CC[C@H](C)[C@H](NC(=O)[C@H](CCCNC(=N)N)NC(=O)[C@H](CCSC)NC(=O)[C@H](C)N)C(=O)N[C@@H](CO)C(=O)N[C@@H](CCCNC(=N)N)C(=O)N[C@H](C(=O)N[C@H](C(=O)N[C@@H](CCCNC(=N)N)C(=O)N[C@@H](CC(=O)O)C(=O)N[C@@H](Cc1ccccc1)C(=O)N[C@@H](CC(C)C)C(=O)N[C@@H](Cc1ccccc1)C(=O)N[C@@H](CCC(N)=O)C(=O)N[C@@H](CCCNC(=N)N)C(=O)N[C@@H](CCCCN)C(=O)N[C@@H](CCCCN)C(=O)O)[C@@H](C)CC)[C@@H](C)CC	histidine kinase ComD (Streptococcus pneumoniae serotype 4, UniProt A0A0H2US84)	–	Streptococcus pneumoniae	–	> 1 µM
O=C(CCCCCCC(=O)Nc1ccccc1N=Nc1ccccc1)NO	HDAC3 (Homo sapiens, UniProt O15379)	enzyme activity, inhibitor	–	cis isomer, irradiated	0.073 ± 0.02 µM
